Measured values pooled from the literature.
Compare with care: the assays were run in different laboratories. ± marks the error that the study gave.

| Molecule | test | system | setting | how to read | measurement | result |
| --- | --- | --- | --- | --- | --- | --- |
| O=c1cc[nH]c(=O)[nH]1 |  | male CD-1 mice, small intestine without content | intravenous, 1 mg/kg, 1 h |  | share of tissue radioactivity | 67.8% |
| C[C@H](Oc1ccc(-c2nc(-c3ccc4[nH]cnc4c3)no2)cc1C(F)(F)F)C(F)(F)F |  | cynomolgus monkey, aneurysm model, plasma | 0.1 mg/kg once daily, 4 h post-dose, 3 months dosing |  | plasma concentration | 18 ± 1.9 nM |
| C[C@@H](Oc1ccc(S(C)(=O)=O)cc1C(=O)N1C[C@@H]2C[C@]2(c2cc(C(F)(F)F)on2)C1)C(F)(F)F |  | healthy men | oral, dose not given, 14 days | reference: subjects | drug-related adverse events | 4% |
| CC(C)C[C@H](N)C(=O)N1CCC[C@H](NCC(=O)N2CCC[C@H]2C(N)=O)C1 | capillary electrophoresis-MS | water |  |  | pKa2 | 8.53 |
| O=C(CCc1ccccc1)c1ccccc1OCC(O)CN1CCC(c2ccccc2)CC1 (stereo not shown) | metabolic stability | female mouse, liver microsomes | 20 µM, pH 7.4 |  | scaled CLint | 29.3 mL/min/kg |
| COc1cc([C@@H]2c3cc4c(cc3[C@@H](O[C@@H]3O[C@@H]5CO[C@@H](C)O[C@H]5[C@H](O)[C@H]3O)[C@H]3COC(=O)[C@H]23)OCO4)cc(OC)c1O |  | male Sprague-Dawley rat, plasma | intravenous, 5 mg/kg |  | clearance | 19.7 mL/min/kg |
| CSc1cc(C)nc(SC)c1NC(=O)CN1CCN(CCSc2nc3ccccc3[nH]2)CC1 |  | mouse Crl:CD1 (ICR) female, cerebrum | intranasal repeated, 32.4 µg in 0.01 N HCl, 30 min |  | concentration | 4.5 ng/g |
| Cn1c(=O)[nH]c2[nH]c(=O)n(C)c2c1=O |  | human hemodialysis patients, plasma | pre-treatment | reference: hemodialysis over normal subjects | total plasma concentration ratio | 7 |
| CCCC[C@H](NC(C)=O)C(=O)N[C@H]1CCC(=O)NC[C@@H](C(=O)N[C@@H](Cc2c[nH]c3ccccc23)C(N)=O)NC(=O)[C@H](CCCNC(=N)N)NC(=O)[C@@H](Cc2ccccc2)NC(=O)[C@H](Cc2c[nH]cn2)NC1=O |  | CD Sprague-Dawley rat, male, plasma | subcutaneous, 5.0 mg/kg/day, day 1 |  | Cmax | 1180 ng/mL |
| O=C(CCCN1CCC(O)(c2ccc(Cl)cc2)CC1)c1ccc(F)cc1 |  | male Hartley guinea pig, anaesthetized | intravenous infusion, 0.1 mg/kg, 10 min infusion | reference: baseline | QTc change | 4.3 ± 1.2% |
| COC(=O)N[C@H](C(=O)N1CCC[C@H]1c1nc(-c2ccc(-c3ccc(-c4c[nH]c([C@@H]5CCCN5C(=O)[C@@H](NC(=O)OC)C(C)C)n4)cc3)cc2)c[nH]1)C(C)C |  | Caco-2 |  |  | Papp A→B | 3.3 ×10⁻⁶ cm/s |
| O=C(c1ccc(OCCN2CCCCC2)cc1)c1c(-c2ccc(O)cc2)sc2cc(O)ccc12 |  | healthy humans, plasma | oral, 60 mg, added: chronic green tea |  | AUC(0-96 h) | 0.0098 µM·h |
| COc1cc(C)c(/C=C/C(C)=C/C=C/C(C)=C/C(=O)O)c(C)c1C | shake-flask | polysorbate 80 | 37 °C |  | thermodynamic solubility | 3.09 ± 0.03 mg/g |
| C[C@@H](N)c1cc(Cl)ccc1Cn1c(=S)[nH]c(=O)c2[nH]ccc21 |  | healthy Japanese volunteers, plasma | oral, 5 mg once daily, day 10, geometric mean |  | AUC(tau) | 0.573 µM·h |
| CNCc1ccc(-c2[nH]c3cc(F)cc4c3c2CCNC4=O)cc1 |  | human patients, plasma | oral, 240 mg twice daily, day 1, 12 h, arithmetic mean |  | AUC(0-t) | 2800 ng·h/mL |
| Clc1ccccc1C(c1ccccc1)(c1ccccc1)n1ccnc1 | shake-flask | soybean oil | 37 °C |  | thermodynamic solubility | 15.1 ± 0.76 mg/g |
| des-acyl ghrelin (human) |  | Ghsr knockout mice, olfactory bulb | intravenous, dose not given, 10 min, vascular space corrected |  | tissue/serum ratio | 15.9 µL/g |
| O=c1c(-c2ccc(O)cc2)coc2cc(O)cc(O)c12 | dynamic light scattering | 50 mM potassium phosphate | pH 7.0 |  | critical aggregation concentration | 150 µM |
| CC(C)=CCC/C(C)=C/CO |  | rat | intravenous infusion, 12.5 mg, 2 h |  | fraction eliminated | 99.9% |

Repeated from above:
| Molecule | test | system | setting | how to read | measurement | result |
| --- | --- | --- | --- | --- | --- | --- |
| O=c1cc[nH]c(=O)[nH]1 |  | male CD-1 mice, small intestine without content | intravenous, 1 mg/kg, 1 h |  | share of tissue radioactivity | 67.8% |
